Measured values gathered from unrelated publications.
Each numbered part is a random draw from the data of one study; scales do not carry over between parts. Changes are numbered by the printed parent chain.

Sample 1 — technique: protein binding microarray; molecule type: double-stranded DNA, one strand shown; matrix: in vitro; concentration: not given; reference: not given; reading: higher = stronger binding; endpoint: E-score
Target: Histone acetyltransferase KAT6A, both winged helices, GST fusion (KAT6A, Homo sapiens, UniProt Q92794, residues 1-181)
Setting: 8-mer, flanks averaged, mean of 2 arrays, mostly near background
Residues (chain): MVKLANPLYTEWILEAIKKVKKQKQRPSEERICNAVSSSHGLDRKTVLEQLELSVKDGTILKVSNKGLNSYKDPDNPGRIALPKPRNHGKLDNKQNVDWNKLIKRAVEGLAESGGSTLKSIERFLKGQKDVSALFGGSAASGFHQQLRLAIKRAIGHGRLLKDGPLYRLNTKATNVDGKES
Oligonucleotide = AATAACTA; value = -0.00274
Oligonucleotide = ACTAGTCC; value = 0.0215
Oligonucleotide = AGGAGGGC; value = -0.195
Oligonucleotide = ATTGAAGG; value = -0.095
Oligonucleotide = CCCATACG; value = 0.0205
Oligonucleotide = CGGCCACA; value = 0.184
Oligonucleotide = CCCTTATA; value = -0.0629
Oligonucleotide = CGCACGAA; value = 0.129
Oligonucleotide = CAATAACG; value = 0.105
Oligonucleotide = AAGTAGAT; value = -0.0845
Oligonucleotide = AGCACTGG; value = -0.227
Oligonucleotide = CTTAAGAC; value = 0.12
Oligonucleotide = AGCTTCTG; value = -0.0386
Oligonucleotide = CGTACATA; value = 0.078
Oligonucleotide = CTCGATAC; value = -0.011
Oligonucleotide = ACCAAGGA; value = -0.0785
Oligonucleotide = AGGTAACA; value = -0.201
Oligonucleotide = GAAGCATA; value = -0.153
Oligonucleotide = CAAAGGGA; value = -0.0843
Oligonucleotide = CAGAACCG; value = 0.0389
Oligonucleotide = ACTCGCTA; value = 0.0444
Oligonucleotide = GGTCATAC; value = 0.123
Oligonucleotide = CTTGCCAA; value = -0.192
Oligonucleotide = GAGAACCC; value = -0.196
Oligonucleotide = GAAATGGC; value = 0.035

Sample 2 — technique: protein-binding microarray; molecule type: double-stranded DNA, one strand shown; matrix: in vitro; concentration: 2200 nM top; setting: 60-bp whole probe; together with: salmon DNA 0.4 mg/ml; reference: random background probes; reading: higher = stronger binding; endpoint: fitted relative affinity; constant ends, left off below: GCCTAGCAC … GTCTTGATTCGCTTGACGCTGCTG
Target: Interferon regulatory factor 7, full length, phosphomimetic (IRF7, Homo sapiens, UniProt Q92985, residues 1-503, S471D/S472D/S475D/S476D/S477D/S483D/S484D/S487D)
UniProt Q92985, sequence (whole entry, unmodified, looked up): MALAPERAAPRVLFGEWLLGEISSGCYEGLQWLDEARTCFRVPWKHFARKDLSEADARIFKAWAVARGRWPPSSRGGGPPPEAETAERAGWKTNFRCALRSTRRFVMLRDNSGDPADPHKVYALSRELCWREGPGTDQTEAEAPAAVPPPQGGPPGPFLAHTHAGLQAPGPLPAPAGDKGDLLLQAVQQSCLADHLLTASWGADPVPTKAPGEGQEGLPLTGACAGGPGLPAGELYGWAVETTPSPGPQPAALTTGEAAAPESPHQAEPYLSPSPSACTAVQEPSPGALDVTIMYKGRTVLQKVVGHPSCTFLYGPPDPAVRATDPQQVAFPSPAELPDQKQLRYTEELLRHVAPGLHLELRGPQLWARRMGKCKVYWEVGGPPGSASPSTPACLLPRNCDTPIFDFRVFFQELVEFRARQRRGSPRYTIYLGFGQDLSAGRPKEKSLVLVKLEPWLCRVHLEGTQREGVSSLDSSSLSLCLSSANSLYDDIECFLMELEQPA
Oligonucleotide = GACGGTTTCGGTATCGGGAAGTGCTAG; value = 7.86 z-score
Oligonucleotide = CCAGACCCTGATCCATGCATGTGCTAG; value = -0.237 z-score
Oligonucleotide = GACGAACTCGGGACTGGAGACGTGCTA; value = -0.431 z-score
Oligonucleotide = TTAGGTTTCGGGTATCGTTTAGTGCTA; value = 5.92 z-score
Oligonucleotide = TTAGGTTTAGGTTTCGGTTAGTGCTAG; value = 5.95 z-score
Oligonucleotide = GACGGTTTCGACTTTCGCGACGTGCTA; value = 7.35 z-score
Oligonucleotide = GACGGTTTCGGTACCGGGACGTGCTAG; value = 4.99 z-score
Oligonucleotide = AAACGGGCTTCTTTTTCTCAGGTGCTA; value = -0.25 z-score
Oligonucleotide = GACGATTCCAGTTTCGGGACGTGCTAG; value = 4.59 z-score
Oligonucleotide = TTTCCTTTATGTCCTGTCTAGTGCTAG; value = 4.74 z-score
Oligonucleotide = AACGAACTGAGTATCGAGACGTGCTAG; value = -0.128 z-score
Oligonucleotide = GACTGTTTCGACACTGGGGACGTGCTA; value = 2.26 z-score
Oligonucleotide = TTAGGTCTCCTTTTCCTTAAGTGCTAG; value = 1.5 z-score
Oligonucleotide = GACAGTCTCCTTCTCCTGACGTGCTAG; value = 1.18 z-score
Oligonucleotide = TTAGGTATCGAATATCGGTTAGTGCTA; value = 0.364 z-score
Oligonucleotide = GACGGTTTCCCACTGCTGACGTGCTAG; value = 2.01 z-score
Oligonucleotide = ATAGGTTTCGGTATCGGTTAGTGCTAG; value = 7.4 z-score
Oligonucleotide = TTAGGTATCCTTTTCCTATAGTGCTAG; value = 1.51 z-score
Oligonucleotide = GACGGTATCATTTTCCTGACGTGCTAG; value = 1.46 z-score
Oligonucleotide = CTTTTTTTTTTTTTCTGATCGTGCTAG; value = 3.06 z-score
Oligonucleotide = GACGGTTTCGGTCTCGGGACGTGCTAG; value = 6.58 z-score
Oligonucleotide = ATAGGTTCCCTTTTCCTTTAGTGCTAG; value = 3.29 z-score
Oligonucleotide = TTACCTTTTCACTTTACACAGTGCTAG; value = 4.8 z-score
Oligonucleotide = TTAGGTTTCCTTCTTCTTTAGTGCTAG; value = 2.12 z-score
Oligonucleotide = GAAACACTAATTTTTACTTTGTGCTAG; value = 0.758 z-score

Sample 3 — target: CCND2, cyclin fold, Cln2 fusion (human); technique: yeast growth competition, sequencing; matrix: yeast; setting: weak parent motif; reference: not given; reading: higher = stronger binding; endpoint: normalised enrichment score
Parent: SLBP docking peptide (human); ARYKRKLLINDFG; partner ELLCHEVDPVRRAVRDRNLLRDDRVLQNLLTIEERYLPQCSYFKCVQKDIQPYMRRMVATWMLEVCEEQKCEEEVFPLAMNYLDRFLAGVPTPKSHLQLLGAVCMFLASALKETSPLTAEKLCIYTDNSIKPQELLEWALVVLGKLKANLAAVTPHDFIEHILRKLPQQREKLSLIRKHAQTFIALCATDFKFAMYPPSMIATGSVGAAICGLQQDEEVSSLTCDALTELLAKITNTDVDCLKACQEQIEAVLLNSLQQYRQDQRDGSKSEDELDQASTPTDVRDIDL
Change = K4H; value = 0.519
Change = A1N; value = 0.492
Change = A1M; value = 0.429
Change = K6N; value = 0.492
Change = D11M; value = 0.355
Change = Y3H; value = 0.0995
Change = K6I; value = 0.0179
Change = L8V; value = 0.547
Change = G13D; value = 0.0371
Change = L8D; value = 0.0635
Change = I9C; value = 0.326
Change = K4R; value = -0.283
Change = N10I; value = 0.149
Change = D11P; value = 0.692
Change = D11A; value = 0.107
Change = D11R; value = 0.189

Sample 4 — technique: Spec-seq; molecule type: double-stranded DNA, one strand shown; matrix: in vitro; concentration: not given; setting: whole probe, mean of replicates; reference: not given; reading: lower = stronger binding; endpoint: relative binding energy; constant ends, left off below: GAGTCGTCTCGTCAGCAC … CCGTAGAGCACTCAGGTC
Target: POU domain, class 5, transcription factor 1, POU domain (Pou5f1, Mus musculus, UniProt P20263, residues 131-289)
UniProt P20263, sequence (131-289, looked up): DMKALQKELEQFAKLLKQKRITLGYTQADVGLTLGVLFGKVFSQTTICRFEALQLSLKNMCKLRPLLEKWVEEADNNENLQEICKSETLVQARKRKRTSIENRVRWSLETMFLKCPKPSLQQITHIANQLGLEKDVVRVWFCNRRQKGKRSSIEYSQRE
Oligonucleotide = ATGCCCAT; value = 0.673 ln ratio
Oligonucleotide = ATGCGGTT; value = 0.507 ln ratio
Oligonucleotide = ATTGCTAT; value = 0.454 ln ratio
Oligonucleotide = ATTACAAT; value = -0.429 ln ratio
Oligonucleotide = TAGTTAAT; value = 0.249 ln ratio
Oligonucleotide = ATGCGTTC; value = 0.241 ln ratio
Oligonucleotide = ATGCCCTT; value = 0.68 ln ratio
Oligonucleotide = ATGCCCGT; value = 0.796 ln ratio
Oligonucleotide = ATATTAAT; value = -0.381 ln ratio
Oligonucleotide = ATCATGAT; value = 0.729 ln ratio
Oligonucleotide = ATATAAAT; value = -0.429 ln ratio
Oligonucleotide = ATCACTAT; value = 0.379 ln ratio
Oligonucleotide = CTACTAAT; value = 0.535 ln ratio
Oligonucleotide = CTTGTAAT; value = 0.548 ln ratio
Oligonucleotide = ATAAATAT; value = -1.06 ln ratio
Oligonucleotide = CGAATAAT; value = -0.632 ln ratio
Oligonucleotide = ATGCGCCC; value = 0.445 ln ratio

Sample 5 — technique: RNA Bind-n-Seq; molecule type: RNA; matrix: in vitro; concentration: 365 nM; reference: no-protein control; reading: higher = stronger binding; endpoint: RBNS enrichment (R)
Target: RNA binding protein fox-1 homolog 2, RRM domain, GST-SBP tag (RBFOX2, Homo sapiens, UniProt O43251-10, residues 100-194)
Setting: natural RNA segment, single round, ends assumed
Constant ends, left off below: GGGAGUUCUACAGUCCGACGAUC … UGGAAUUCUCGGGUGCCAA
Residues (chain): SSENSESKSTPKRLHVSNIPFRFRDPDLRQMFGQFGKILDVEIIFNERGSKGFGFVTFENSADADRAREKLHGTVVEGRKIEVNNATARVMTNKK
Oligonucleotide = CGUCUCCGUGCAGAUCUUGAAGAGAAAGAACCUCGGCUGCUGUGCUGGGGUUGAACAGAGCCUCCCACCUGGGAAGGCAGAGCAGACCUGCCCAAGAGCUCCCCACACGC; value = 0.246
Oligonucleotide = GUGCUUAGAGAGAGCAAUGUCCAAUCUGUGGCUUGGGAGGUGUCUGCAAGUGACAUUCCUGCGAGCUUAGUGAUAUGGUCAAGUCCAUUGCAUCAGUAAUUUAUUUUUUU; value = 0.872
Oligonucleotide = UCACUAGUGGAAAUAAAUUGUAUUAUACCAUGAUCUACUGGCUUUUUAAAACUGUAUUAAAUAUGCACAUUUUUGGUAUAGCUAUUAUCAUUUGUAUGUAUAUAUUGUAU; value = 0.491
Oligonucleotide = CUCUUGAAGGGCUACCUUUUGUUUUAAUUGGUGGUGUACUUUUUUGUAUGUGGAAUUUGUCCCAUGUGCUUGCUAAAAUGUUUGGGGAUCUCCUCACACUGGUAAUGUCU; value = 1.16
Oligonucleotide = AAGAGGAAGAGGGAGGGAAGGGGAGCAAGCAAAUCCAGGUCUUUUCUUGUACCAGUGGAACCUGCUCUGAAUCUCCCAAGUCCUCCACUGUGAAUUGGGCUGGGUGGGGG; value = 0.871
Oligonucleotide = GUAAUCUGUUCCCAGUGUGGUAUCUCAAAAUUGUGCUGAGAUUAUCUUAGUAUAUGUAUUGGAUUCCUGUACUUCCAAAGUCCUGGAAUAUAGUUUUUUUAGUAUAAUUC; value = 0.318
Oligonucleotide = AAGCUCUAGCUUAAUGUCUAUGAUUUGUUCUUUGACAUUAAGGAAGGUAAGGAUUGGUCAGAGGAUGUAACUUGAUGUGAGCAGUAGUAAACCUGUUUUAGAUAUCAUAC; value = 0.289
Oligonucleotide = AUGUUAUAAAAAUUGUCAUUGAAUUCUUUAAUGGUGUCCAACCACGAUGAUAUUGCUGAUCAAAAGUUAUGAACAGAAAUAAGAGUGACAGCUAGCUAAGUCAAGCUUUU; value = 0.301
Oligonucleotide = AAGAAAAAUUGUUCUCUAACCAGGAUUGUAACAAAAGUGUAAAUACUGUUUCAGAGUUGAGAGUUGGUGGUGCAAAUAUGUAUAUAAUGAACUGUAUUUUUACAAUGAUC; value = 0.673
Oligonucleotide = GAGUUGUCUGUCCGUCCGUGGAGCCAGUCCUAGCCACAUUAUUGACAGUCUUGCAUUUUGUUUUGUCUCGUGAUGGUGGUGGUGGUAGGGGUACGCUUAGGUGGGCAGUC; value = 1.92
Oligonucleotide = CCUGUAUUCCAGAAACUCACUUGAUUCUGUAUUGGUAAAUGCCUGGCUUCUUCACCAACUCCAUAGGUAACACAGCAAAGGAAAACCACAGAAGACAGAAGACAGGCAUC; value = 0.364
Oligonucleotide = GUUAUUUGAAGCUGCAGAGCCACACCCUUGGCCUAACCCCUAGCAGACUGAGGCUCUCCCAUGCCUACCAGGGGGUGUUUUCCUUCCUAAACAGAACACUGGAUUCUUCC; value = 0.218

A few entries again (sample 1):
Oligonucleotide = CAAAGGGA; value = -0.0843
Oligonucleotide = CAGAACCG; value = 0.0389
Oligonucleotide = ACTCGCTA; value = 0.0444
Oligonucleotide = GGTCATAC; value = 0.123
Oligonucleotide = CTTGCCAA; value = -0.192
Oligonucleotide = GAGAACCC; value = -0.196
Oligonucleotide = GAAATGGC; value = 0.035
